Measured values gathered from unrelated publications.
A part holds a random share of what one study measured. Several values in a cell are separate wells, animals, samples, runs or records.
Chain of UniProt P20309 (whole entry, looked up): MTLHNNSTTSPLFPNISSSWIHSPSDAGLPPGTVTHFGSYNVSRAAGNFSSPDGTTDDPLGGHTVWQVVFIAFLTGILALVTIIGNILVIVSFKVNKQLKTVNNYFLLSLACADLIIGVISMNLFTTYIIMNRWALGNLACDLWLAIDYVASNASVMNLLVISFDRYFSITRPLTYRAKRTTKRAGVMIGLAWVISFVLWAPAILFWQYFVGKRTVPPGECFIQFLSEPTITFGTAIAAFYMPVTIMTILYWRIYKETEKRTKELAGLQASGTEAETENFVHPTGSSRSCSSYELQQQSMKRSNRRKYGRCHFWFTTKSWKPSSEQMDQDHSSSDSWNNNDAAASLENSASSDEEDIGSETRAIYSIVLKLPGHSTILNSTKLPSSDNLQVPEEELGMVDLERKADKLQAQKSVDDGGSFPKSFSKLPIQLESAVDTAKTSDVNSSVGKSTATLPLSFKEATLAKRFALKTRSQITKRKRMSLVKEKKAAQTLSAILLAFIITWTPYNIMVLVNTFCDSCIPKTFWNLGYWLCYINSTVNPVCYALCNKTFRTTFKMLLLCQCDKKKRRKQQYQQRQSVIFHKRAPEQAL
Chain of UniProt P41143 (whole entry, looked up): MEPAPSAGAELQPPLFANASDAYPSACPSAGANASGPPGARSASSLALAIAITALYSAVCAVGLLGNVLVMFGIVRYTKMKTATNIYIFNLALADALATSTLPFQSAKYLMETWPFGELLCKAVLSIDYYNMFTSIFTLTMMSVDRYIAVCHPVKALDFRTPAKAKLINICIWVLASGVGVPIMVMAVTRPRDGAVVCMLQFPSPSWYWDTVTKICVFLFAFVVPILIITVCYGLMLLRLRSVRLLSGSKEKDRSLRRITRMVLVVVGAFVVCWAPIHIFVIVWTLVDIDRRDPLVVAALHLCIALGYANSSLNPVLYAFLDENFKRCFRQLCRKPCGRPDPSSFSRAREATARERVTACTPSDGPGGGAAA
Chain of UniProt P41145 (whole entry, looked up): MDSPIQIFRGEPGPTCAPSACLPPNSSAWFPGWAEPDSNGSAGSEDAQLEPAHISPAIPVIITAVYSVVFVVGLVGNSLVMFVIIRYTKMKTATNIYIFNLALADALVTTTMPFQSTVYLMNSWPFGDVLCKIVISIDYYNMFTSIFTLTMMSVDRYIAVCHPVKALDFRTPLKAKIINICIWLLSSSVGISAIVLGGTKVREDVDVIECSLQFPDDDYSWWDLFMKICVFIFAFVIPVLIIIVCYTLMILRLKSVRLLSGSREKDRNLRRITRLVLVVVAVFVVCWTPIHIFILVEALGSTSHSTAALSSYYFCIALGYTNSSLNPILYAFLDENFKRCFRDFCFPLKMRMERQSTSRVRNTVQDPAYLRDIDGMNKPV
Chain of UniProt Q01959 (whole entry, looked up): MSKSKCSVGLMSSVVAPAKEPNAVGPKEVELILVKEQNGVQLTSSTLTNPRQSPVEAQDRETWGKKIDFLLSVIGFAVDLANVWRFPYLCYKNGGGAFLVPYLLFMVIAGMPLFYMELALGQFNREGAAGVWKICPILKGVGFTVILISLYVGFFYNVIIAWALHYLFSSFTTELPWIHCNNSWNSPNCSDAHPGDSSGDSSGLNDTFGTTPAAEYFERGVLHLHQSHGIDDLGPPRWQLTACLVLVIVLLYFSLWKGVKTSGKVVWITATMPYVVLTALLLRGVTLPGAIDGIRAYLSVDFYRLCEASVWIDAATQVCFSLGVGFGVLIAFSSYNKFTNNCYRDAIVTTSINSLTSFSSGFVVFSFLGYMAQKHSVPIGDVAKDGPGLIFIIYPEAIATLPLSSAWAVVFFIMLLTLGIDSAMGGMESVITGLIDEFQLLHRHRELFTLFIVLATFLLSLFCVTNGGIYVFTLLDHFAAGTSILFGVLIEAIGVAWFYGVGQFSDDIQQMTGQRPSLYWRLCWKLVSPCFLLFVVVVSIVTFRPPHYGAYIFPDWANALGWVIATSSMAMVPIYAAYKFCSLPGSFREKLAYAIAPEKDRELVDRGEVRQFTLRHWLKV
Chain of UniProt P23975 (whole entry, looked up): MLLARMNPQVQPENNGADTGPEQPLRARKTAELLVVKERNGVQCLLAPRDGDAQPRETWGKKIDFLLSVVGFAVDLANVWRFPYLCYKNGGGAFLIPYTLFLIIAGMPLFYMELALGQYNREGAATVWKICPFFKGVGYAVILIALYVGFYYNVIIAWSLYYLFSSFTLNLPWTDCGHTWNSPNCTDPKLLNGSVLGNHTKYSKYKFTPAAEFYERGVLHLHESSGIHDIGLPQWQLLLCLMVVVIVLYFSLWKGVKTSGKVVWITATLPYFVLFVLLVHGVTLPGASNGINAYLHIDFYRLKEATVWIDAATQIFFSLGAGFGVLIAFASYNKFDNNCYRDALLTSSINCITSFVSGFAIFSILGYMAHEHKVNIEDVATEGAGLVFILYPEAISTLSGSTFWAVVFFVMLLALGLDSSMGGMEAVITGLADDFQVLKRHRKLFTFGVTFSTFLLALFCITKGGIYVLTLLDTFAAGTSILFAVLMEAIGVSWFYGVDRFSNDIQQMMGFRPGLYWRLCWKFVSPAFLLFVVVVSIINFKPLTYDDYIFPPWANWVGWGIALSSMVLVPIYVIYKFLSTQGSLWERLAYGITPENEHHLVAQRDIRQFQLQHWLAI

Set 1
Target: HLA class I histocompatibility antigen, C alpha chain, allele C*04:01 (Homo sapiens, UniProt P10321)
Observed: peptide-MHC binding
Form: peptide
Tested at: concentration not given
`FYYNAFHWA` — result for binding: “inactive”.
For `FARQNNGAF`, binding read “inactive”.
`IIMRRFFYF` — result for binding: “inactive”.
`CTSSIQYHR`: binding “inactive”.
Under binding, `KAIGTVLV` is recorded as “inactive”.
For `YFYYNAFHWAI`, binding read “inactive”.
Under binding, `SYLTVHQMI` is recorded as “inactive”.
`YVILVGAAF`: binding “inactive”.

Set 2
Compound: COc1ccc2c(c1)O[C@H](c1ccc(OC)c(OC)c1)C[C@@H]2NC(=O)C1(c2ccc3c(c2)OC(F)(F)O3)CC1
Observed: cell-free assay
Tested at: 10 µM
For SLC6A2 (Homo sapiens, UniProt P23975): inhibition read -24.1%.
For OPRK1 (Homo sapiens, UniProt P41145): inhibition read 34.1%.
For SLC6A3 (Homo sapiens, UniProt Q01959): inhibition read 6.33%.
CHRM3 (Homo sapiens, UniProt P20309) — inhibition: 1.13%.
The inhibition was -22.7% (HTR1A (Homo sapiens, UniProt P08908)).
OPRD1 (Homo sapiens, UniProt P41143) — inhibition: -7.29%.
For DRD5 (Homo sapiens, UniProt P21918): inhibition read 20.7%.

Single results of other studies
For `Cc1ccc(/N=C/N(C)/C=N/c2ccc(C)cc2C)c(C)c1`, the viability was 45.3% (A-375; 100 µM, 18 h).
For `CC(C)S(=O)(=O)c1cc2c(Nc3ccc4sc(C5CCCC5)nc4c3)ccnc2cc1OCCO`, the survival was 92.3% and 85.1% and 85% and 93.2% and 92.6% (L929 RIPK3-/- reexpressing RIPK3 K51A; CCK-8; 3.125 µM, together with: zVAD).
For `C[N+]12CCC(CC1)C(OC(=O)C(O)(c1ccccc1)c1ccccc1)C2` (stereo not drawn), the viability was 97.2% (A-375; 100 µM, 18 h).

A few entries again (set 2):
The inhibition was -22.7% (HTR1A (Homo sapiens, UniProt P08908)).
OPRD1 (Homo sapiens, UniProt P41143) — inhibition: -7.29%.
